Measurements from different studies.
Compare with care: the assays were run in different laboratories. Several values in a cell are separate wells, animals, samples, runs or records. Numbers after ± are the reported error.

SMILES | test | system | setting | how to read | endpoint | value
CC/C(=C(\c1ccccc1)c1ccc(OCCN(C)C)cc1)c1ccccc1 |  | CD-1 mouse, male, plasma | intraperitoneal, 3 mg/kg |  | AUC(0-inf) | 612 ng·h/mL
CC[C@H](C)CCCCC(=O)N[C@@H](CCN)C(=O)N[C@H](C(=O)N[C@@H](CCN)C(=O)N[C@H]1CCNC(=O)[C@H]([C@@H](C)O)NC(=O)[C@H](CCN)NC(=O)[C@H](CCN)NC(=O)[C@H](CC(C)C)NC(=O)[C@@H](CC(C)C)NC(=O)[C@H](CCN)NC1=O)[C@@H](C)O |  | rat | intravenous, 5 mg/kg |  | AUC extrapolated percentage | 0.0795%
C=CCNc1c(O)cc2c(O)c1C[C@@H](C)C[C@H](OC)[C@H](O)[C@@H](C)/C=C(\C)[C@H](OC(N)=O)[C@@H](OC)/C=C\C=C(/C)C(=O)N2 |  | unresectable or metastatic STS, GIST, other | intravenous, 300 mg/m^2 |  | patients with headache TEAE | 33%
NCCCC[C@@H]1NC(=O)[C@@H](Cc2c[nH]c3ccccc23)NC(=O)[C@H](c2ccccc2)NC(=O)[C@@H]2C[C@@H](OC(=O)NCCN)CN2C(=O)[C@H](Cc2ccccc2)NC(=O)[C@H](Cc2ccc(OCc3ccccc3)cc2)NC1=O |  | healthy volunteers, female | 1950 µg twice daily, 0.0 h, post hoc |  | placebo-corrected QTcF change | 5.1 ms
CC(=O)c1c(C)c2cnc(Nc3ccc(C4CCN(CCS(C)(=O)=O)CC4)cn3)nc2n(C2CCCC2)c1=O |  | HR+/HER2- advanced breast cancer patients | oral, dose not given |  | patients with TEAE ≥grade 3 | 73.7%
COc1cccc(Oc2ccccc2NC(=O)CNC(=O)c2cccc3ccccc23)c1 |  | esterase-deficient SCID mice, male | oral, 100 mg/kg/day, 14 days, toxicity study |  | blood urea nitrogen | 29 mg/dL and 27 mg/dL and 33 mg/dL
COc1ccc(CCC2CCCC(CCc3ccc(OC)cc3)N2C[C@@H](O)CO)cc1.Cl (stereo in doubt) |  | rabbit Purkinje fibres | 0.1 µM, cycle length 0.5 s | baseline: baseline | action potential amplitude change | 0.6 ± 5.6 mV
COc1ccc(C[C@@H]2NC(=O)[C@H]([C@@H](C)O)NC(=O)[C@@H]3[C@@H]4CCN3C(=O)[C@@H]3Cc5cn(c6ccc(F)cc56)CCCCCCN(Cc5ccc(cc5)CCNC(=O)[C@]5(C)CCCN5C2=O)C(=O)CCC(=O)N[C@@H](C)C(=O)N[C@H](CNC(=O)CCCCC[N+](C)(C)C)C(=O)N[C@@H](Cc2cccc(c2)CNC(=O)CO4)C(=O)N3)cc1 | refers to: Hematuria | humans | concentration not given, Study-001 |  | participants with adverse event | 0%
CCc1ccc(CC/C=C/c2ccc3c(c2)C(=O)CC3)cc1 |  | Sprague-Dawley rat, male | oral, 450 mg/kg/day, 14 days |  | ALP serum activity | 299 U/L
O=C(O)CCCOc1ccc(F)cc1-c1cc(-c2ccccc2C(F)(F)F)n(-c2ccccc2)n1 | refers to: α1-glb | Crl:CD(SD) rats, male, serum | iv, 25 µg/kg, 14 days |  | serum protein fraction | 22 ± 4%
CC(C)c1nc(N(C)S(C)(=O)=O)nc(-c2ccc(F)cc2)c1/C=C/[C@@H](O)C[C@@H](O)CC(=O)O |  | healthy human subjects | oral, dose not given, study CL-0537 safety set |  | incidence of Dysmenorrhea | 3.6%
CO[C@H]1C[C@@H]2CC[C@@H](C)[C@@](O)(O2)C(=O)C(=O)N2CCCC[C@H]2C(=O)O[C@H]([C@H](C)C[C@@H]2CC[C@@H](OC(=O)NCCOCCOCCOCCOCCOCCOCCOCCOCCC(=O)N3CCc4cc(Cn5nc(-c6ccc7oc(N)nc7c6)c6c(N)ncnc65)ccc4C3)[C@H](OC)C2)C[C@@H](O)[C@H](C)/C=C(\C)[C@@H](O)[C@@H](OC)C(=O)[C@H](C)C[C@H](C)/C=C/C=C/C=C/1C |  | patients with advanced solid tumours | intravenous, 16 mg weekly, any grade |  | constipation incidence | 25%
CC(C)Nc1ccnc(Nc2cccc(-c3cccnc3)c2)n1 | refers to: alkaline phosphatase | mouse, blood | intraperitoneal, 10 mg/kg |  | blood chemistry | 147 U/L
C[C@@H]1NC(=O)[C@H](CCCCNC(=O)CO/N=C/C(=O)NCCCC[C@@H]2NC(=O)[C@@H](Cc3ccccc3)NC(=O)[C@H](CC(=O)O)NC(=O)CNC(=O)[C@H](CCCNC(=N)N)NC2=O)NC(=O)CNC(=O)[C@@H]2CCCN2C(=O)[C@H](CCCCNC(=O)CO/N=C/C(=O)NCCCC[C@@H]2NC(=O)[C@@H](Cc3ccccc3)NC(=O)[C@H](CC(=O)O)NC(=O)CNC(=O)[C@H](CCCNC(=N)N)NC2=O)NC(=O)[C@H](CCCCNC(=O)[C@H](CCCCN)NC(=O)[C@H](Cc2ccccc2)NC(=O)CNC(=O)CN2CCCNCCNCCCNCC2)NC(=O)[C@H](CCCCNC(=O)CO/N=C/C(=O)NCCCC[C@@H]2NC(=O)[C@@H](Cc3ccccc3)NC(=O)[C@H](CC(=O)O)NC(=O)CNC(=O)[C@H](CCCNC(=N)N)NC2=O)NC(=O)CNC(=O)[C@@H]2CCCN2C(=O)[C@H](CCCCNC(=O)CO/N=C/C(=O)NCCCC[C@@H]2NC(=O)[C@@H](Cc3ccccc3)NC(=O)[C@H](CC(=O)O)NC(=O)CNC(=O)[C@H](CCCNC(=N)N)NC2=O)NC1=O [copper-64 labelled] |  | normal mice, blood | intravenous, 0.74 MBq, 3 h post-injection |  | tissue uptake | 0.12 ± 0.01 %ID/g
O=C(Nc1ccccc1)C1CCN(C(=O)Oc2cccnc2)CC1 |  | healthy women | oral, 60 mg, 7 days |  | adverse event Headache | 7.1%
CCCCCOc1ccc(-c2ccc(-c3ccc(C(=O)N[C@H]4C[C@@H](O)[C@@H](OCC[N+](C)(C)C)NC(=O)[C@@H]5[C@@H](O)[C@@H](C)CN5C(=O)[C@H]([C@@H](C)O)NC(=O)[C@H]([C@H](O)[C@@H](O)c5ccc(O)cc5)NC(=O)[C@@H]5C[C@@H](O)CN5C(=O)[C@H]([C@@H](C)O)NC4=O)cc3)cc2)cc1 |  | adult ICU patients, mITT, serum | dose not given, day 14 |  | aspartate aminotransferase | 20.4 U/L
C[C@]1(CO)Cc2ncn(-c3ccc(C#N)c(Cl)c3)c2C(=O)O1 |  | human, plasma | 3 mg, first dose fasted |  | Cmax | 125 nM
O=C1Nc2cc3[nH]nc(-c4ccncc4)c3cc2CN1Cc1ccccc1 | CTCAE v4.03 | human, relapsed or refractory advanced solid tumours | intravenous, 6.4 mg/kg |  | patients with subretinal fluid | 22%

SMILES | test | system | setting | how to read | endpoint | value
O=S(=O)(Nc1ccccc1)c1ccc(NC(=S)Nc2ccccc2)cc1 |  | male mice, thymus | oral, 80 mg/kg daily 14 days | baseline: body weight | relative organ weight | 0.26%
N#C[C@@]1(n2ccc(N)nc2=O)O[C@H](CO)[C@@H](O)[C@H]1O |  | human liver microsomes | 1 µM, pH 7.4 |  | microsomal stability time | ≥ 2 h
COc1cc2c(Oc3ccc4[nH]c(C)cc4c3F)ccnc2cc1OCC1(N)CC1 |  | paediatric recurrent refractory sarcoma | 12 mg |  | grade 1 or 2 Proteinuria | 0%
CC(C)[C@@H]1NC(=O)CNC(=O)[C@H](CC(N)=O)NC(=O)[C@H](CCCNC(=N)N)NC(=O)[C@H](Cc2ccc(O)cc2)NC(=O)[C@H](C(C)C)NC(=O)[C@@H](NC(=O)[C@@H](NC(=O)[C@H](CC(N)=O)NC(=O)[C@H](Cc2c[nH]c3ccccc23)NC(=O)[C@H](C)NC(=O)[C@H](Cc2ccccc2)NC(=O)CN)C(C)C)CSSC[C@@H](C(=O)N[C@@H](Cc2c[nH]cn2)C(=O)N[C@@H](CCCNC(=N)N)C(=O)N[C@@H](CCCNC(=N)N)C(=O)N[C@@H](C)C(=O)N[C@@H](CC(N)=O)C(N)=O)NC(=O)[C@H](C(C)C)NC(=O)[C@H](CCCNC(=N)N)NC1=O | circular dichroism, refers to: antiparallel β-sheet | PBS | 80 µM, pH 7.4, with: LTA 1 µM |  | secondary structure content | 36.1%
S=c1oc(-c2ccccc2)nn1CN1CCN(Cc2ccccc2)CC1 |  | Wistar rat female | oral, 300 mg/kg, acute toxicity OECD 423 |  | serum ALT | 43 ± 3.2 U/L
Cn1cncc1-c1c(F)cncc1NC(=O)c1c(N)nn2cc(F)cnc12 |  | human patients | oral, 80 mg once daily |  | grade ≥3 anaemia incidence | 0%
O=c1ccc2ncc(=O)n3c2n1C[C@H]3CN1CCC(NCc2cc3c(cn2)OCCC3)CC1 |  | healthy human volunteers, plasma | oral, dose not given, arithmetic mean, with: itraconazole |  | AUC(0-inf) | 27200 ng·h/mL
CCCCCCCCCCCCCCCC(=O)N[C@@H](CCC(=O)NCCCC[C@H](NC(=O)[C@H](CC(=O)O)NC(=O)[C@H](CO)NC(=O)[C@@H](NC(=O)[C@H](Cc1ccccc1)NC(=O)[C@@H](NC(=O)CNC(=O)[C@H](CCC(N)=O)NC(=O)[C@H](CO)NC(=O)[C@@H](N)Cc1c[nH]cn1)[C@@H](C)O)[C@@H](C)O)C(=O)N[C@@H](CO)C(=O)N[C@@H](CCC(=O)O)C(=O)N[C@@H](Cc1ccc(O)cc1)C(=O)N[C@@H](CC(C)C)C(=O)N[C@@H](CC(=O)O)C(=O)N[C@@H](CO)C(=O)N[C@@H](CCC(=O)O)C(=O)N[C@@H](CCCNC(=N)N)C(=O)N[C@@H](C)C(=O)N[C@@H](CCCNC(=N)N)C(=O)N[C@@H](CC(=O)O)C(=O)N[C@@H](Cc1ccccc1)C(=O)N[C@H](C(=O)N[C@@H](C)C(=O)N[C@@H](Cc1c[nH]c2ccccc12)C(=O)N[C@@H](CC(C)C)C(=O)N[C@@H](CCC(=O)O)C(=O)N[C@@H](C)C(=O)NCC(=O)NCC(=O)O)C(C)C)C(=O)O |  | human, CrCl ≥ 90 mL/min | sc, 100 µg single dose |  | treatment-related adverse events | 50%
O=C(O)C(F)(F)C(F)(F)C(F)(F)C(F)(F)C(F)(F)C(F)(F)C(F)(F)F | 19F NMR chemical shift titration |  |  | lower pKa than literature | pKa shift vs literature | 0.5 to 1 pKa units
CNC(=O)c1cc(Oc2ccc(NC(=O)Nc3cc(C(C)(C)C)nn3-c3ccc4ncccc4c3)c(F)c2)ccn1 | pericardial effusion, NCI CTC v3.0 | human patients | oral, all dose levels |  | related SAE | 2%
CC[C@H](C)[C@H](NC(=O)[C@H](CCCCN)NC(=O)[C@H](CCC(=O)O)NC(=O)[C@H](CCCCN)NC(=O)[C@H](CO)NC(=O)[C@H](CCCCN)NC(=O)[C@H](CCCNC(=N)N)NC(=O)[C@H](Cc1ccccc1)NC(=O)[C@H](Cc1ccccc1)NC(=O)[C@H](CC(=O)O)NC(=O)CNC(=O)[C@H](CC(C)C)NC(=O)[C@@H](N)CC(C)C)C(=O)NCC(=O)N[C@@H](CCCCN)C(=O)N[C@@H](CCC(=O)O)C(=O)N[C@@H](Cc1ccccc1)C(=O)N[C@@H](CCCCN)C(=O)N[C@@H](CCCNC(=N)N)C(=O)N[C@H](C(=O)N[C@H](C(=O)N[C@@H](CCC(N)=O)C(=O)N[C@@H](CCCNC(=N)N)C(=O)N[C@H](C(=O)N[C@@H](CCCCN)C(=O)N[C@@H](CC(=O)O)C(=O)N[C@@H](Cc1ccccc1)C(=O)N[C@@H](CC(C)C)C(=O)N[C@@H](CCCNC(=N)N)C(=O)N[C@@H](CC(N)=O)C(=O)N[C@@H](CC(C)C)C(=O)N[C@H](C(=O)N1CCC[C@H]1C(=O)N[C@@H](CCCNC(=N)N)C(=O)N[C@H](C(=O)N[C@@H](CCC(=O)O)C(=O)N[C@@H](CO)C(=O)O)[C@@H](C)O)C(C)C)[C@@H](C)CC)C(C)C)[C@@H](C)CC | LC-MS | buffer with human neutrophil elastase | 40 µM, 60 min, pH 7.5, 37 °C | baseline: 0 h | remaining intact peptide | 5.19% and 6.52%
Oc1ccc(Cl)c(-c2ccc(Cl)cc2Cl)c1Cl | enantioselective gas chromatography | racemized sample | column temperature 150 °C |  | enantiomeric fraction | 0.52
CN[C@H](CC(C)C)C(=O)N[C@H]1C(=O)N[C@@H](CC(N)=O)C(=O)N[C@H]2C(=O)N[C@H]3C(=O)N[C@H](C(=O)N[C@H](C(=O)O)c4cc(O)cc(O)c4-c4cc3ccc4O)[C@H](O)c3ccc(c(Cl)c3)Oc3cc2cc(c3O[C@@H]2O[C@H](CO)[C@@H](O)[C@H](O)[C@H]2O[C@H]2C[C@](C)(N)[C@H](O)[C@H](C)O2)Oc2ccc(cc2Cl)[C@H]1O |  | female rat, serum | intraperitoneal, 200 mg/kg, 7 h, with: zileuton 4 mg/kg ip |  | AUC | 643000 ng·h/mL
[2H]C([2H])([18F])[C@]([2H])(N)C(=O)O | PET | athymic nude mice, U-87 MG, muscle | dose not given, 20 min post-injection |  | tissue uptake | 1.44 ± 0.21 %ID/cc
C[C@@H](NC(=O)N1C(=O)[C@H](Cc2ccnc(N)c2)[C@H]1C(=O)O)C1CCCCC1 |  | healthy Chinese adult volunteers | continuous intravenous infusion, dose not given, 5.0 days, all doses pooled |  | drug-related abnormal liver function | 10%
Cn1cc(-c2nc(N[C@@H]3CCCC[C@@H]3N)c(F)c3c2C(=O)NC3)cn1 | any bleeding | patients with relapsed or refractory AML | oral, 60 mg once daily |  | adverse events | 75%
C=CC(=O)Nc1cc(Nc2nccc(Nc3cc(Cl)c(F)cc3C(C)(C)O)n2)c(OC)cc1N1CC[C@@H](N(C)C)C1 |  | human patients | oral, 300 mg, treatment-emergent adverse events |  | patients with diarrhoea | 56.9%
